# Assay results pooled from the literature.
# Parts stem from different laboratories: compare values within a part only.

# Series 1
# Target: Sal-like protein 4, full length isoform B (SALL4, Homo sapiens, UniProt Q9UJQ4-2, residues 1-616)
# Method: universal PBM
# Form: double-stranded DNA, one strand shown
# Medium: in vitro
# Concentration: not given
# Setting: 8-mer, flanks averaged, mean of replicates
# Reading: higher = stronger binding
Sequence,E-score
CGGTTTCC,-0.263
ACGCATTC,-0.0717
CCTGAGCA,-0.145
ACATCAGC,-0.0529
CAGGTGAA,-0.00797
GTAGGTGA,-0.043
CCAGCGAA,-0.223
AAAGAATC,0.0274
AGCCAGAC,-0.232
CTTCCTCC,-0.253
ACGAGACG,-0.153
ATTTTAGC,0.158
CGTAGCCA,-0.00494
ATACTGAG,0.104
ACTGTAAA,0.257
AGGGAGTA,0.0164
AAATACTC,0.251
ATAGGGTC,-0.0388

# Series 2
# Target: Ras GTPase-activating protein-binding protein 1, full length (G3BP1, Homo sapiens, UniProt Q13283)
# UniProt Q13283, sequence (whole entry, looked up): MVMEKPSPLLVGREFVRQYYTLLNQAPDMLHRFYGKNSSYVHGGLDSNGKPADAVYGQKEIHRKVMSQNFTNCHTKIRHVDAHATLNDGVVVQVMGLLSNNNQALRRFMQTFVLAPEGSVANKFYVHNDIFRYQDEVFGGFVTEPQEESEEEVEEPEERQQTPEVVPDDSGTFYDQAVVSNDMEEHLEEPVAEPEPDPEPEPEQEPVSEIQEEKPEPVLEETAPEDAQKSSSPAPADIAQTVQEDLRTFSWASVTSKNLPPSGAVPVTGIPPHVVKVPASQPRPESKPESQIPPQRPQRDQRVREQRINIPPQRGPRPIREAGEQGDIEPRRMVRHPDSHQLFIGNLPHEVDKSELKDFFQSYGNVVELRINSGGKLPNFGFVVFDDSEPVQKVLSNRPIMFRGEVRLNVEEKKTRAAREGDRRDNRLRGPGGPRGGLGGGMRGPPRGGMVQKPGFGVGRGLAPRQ
# Method: RNA Bind-n-Seq
# Form: RNA
# Medium: in vitro
# Concentration: 200 nM
# Setting: whole 134-nt RNA, ends assumed
# With: 150 mM KCl
# Relative to: input library
# Reading: higher = stronger binding
Sequence,log2 enrichment
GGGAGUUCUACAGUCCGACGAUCAAGUCCUGUGCUACACAUCGUAUGUACCGAAUCAAAUUUAAACCCAAACCCCCAAAAAAGUAUUAUGUUACGCCGUUCGGAUCUGCACUUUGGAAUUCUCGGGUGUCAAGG,-0.529
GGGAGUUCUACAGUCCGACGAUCACCAUGCAGGUGGGCAUCUUUGGGAAGUGGGGCAAGGGGGGGAUAGGGAGGGGGGUAACACUUUGGGAUCAGGUGGUCCCAGGUCGUUUCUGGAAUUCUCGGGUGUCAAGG,0.825
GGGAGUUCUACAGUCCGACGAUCGUCCUGUGCUACACAUCGUAUGUACCGAAUCGGUUUUUGGGGUUUUUGGGUUUUUGGGAAAGUAUUAUGUUACGCCGUUCGGAUCUGCACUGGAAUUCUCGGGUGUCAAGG,-0.649
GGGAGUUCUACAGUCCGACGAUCCUCAAGUCCUGUGCUACACAUCGUAUGUACCGAAUCGGGAAGGAAGGAAGGGGAAAGUAUUAUGUUACGCCGUUCGGAUCUGCACUUCCAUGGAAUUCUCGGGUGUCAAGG,-0.11
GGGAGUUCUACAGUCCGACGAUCCACAGACAACACGCACCCACACAGACACAGAGGGAAGGGGUUGGGAUGGGGACAGGGUGCACAGCAGGGCGGGAUAGGACCCCAGCCCCUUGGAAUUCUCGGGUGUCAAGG,1.97
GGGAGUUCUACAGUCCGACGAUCUGGGAGGUGGAUUUUGUUUAUUUUUUUAGCUCAUUUCCAGUGGUGGGAAUUUUUUUUUAAUAUGUGUCAUGAAUAAAGUUGUUUUUGAAAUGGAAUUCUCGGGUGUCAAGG,-0.162
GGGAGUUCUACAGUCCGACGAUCACGAUGCAGGUGGGCAUCUUUGGGAAGUGGGGCAAGGGGGGGAUAGGGAGGGGGGUAACACUUUGGGAACAGGUGGUCCCAGGUCGUUUCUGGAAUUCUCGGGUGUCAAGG,1.38
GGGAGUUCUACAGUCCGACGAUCGCAGGAAGUAAAAACAAAUGGAAAUGCUUCGGAUAGUGGCAAAAGUGGGGGUUGCUAAGGAAAGGGUGGGAUGGGAGUGGGUAAAGAGUUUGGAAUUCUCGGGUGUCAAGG,0.893
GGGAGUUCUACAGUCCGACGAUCUCAUUUUUUUCCCUGCCGGAAUUUUAGCAUUGAUAUGAACCAUGGACAAGUAUAUUCUGCUGCCACAAAGACUGUAAAGUGCUUCAUUUCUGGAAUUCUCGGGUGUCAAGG,0.13
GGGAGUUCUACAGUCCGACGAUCCCUGUGCUACACAUCGUAUGUACCGAAUCGGUUUUUUUGGUUUUUUUGGGGUUUUUUUGGGAAAGUAUUAUGUUACGCCGUUCGGAUCUGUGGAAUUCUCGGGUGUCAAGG,-1.05

# Series 3
# Target: RNA binding protein fox-1 homolog 2, RRM domain, GST-SBP tag (RBFOX2, Homo sapiens, UniProt O43251-10, residues 100-194)
# Method: RNA Bind-n-Seq
# Form: RNA
# Medium: in vitro
# Concentration: 365 nM
# Setting: natural RNA segment, single round, ends assumed
# Relative to: no-protein control
# Reading: higher = stronger binding
# Target sequence (chain): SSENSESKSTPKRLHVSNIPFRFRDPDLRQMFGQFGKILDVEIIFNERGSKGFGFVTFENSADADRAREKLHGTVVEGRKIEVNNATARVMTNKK
Sequence,RBNS enrichment (R)
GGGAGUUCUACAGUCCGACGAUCUAAGUUGUUUAUAUUUGGUAAAAGGUUCAUUUGUCCCUUUUAGCUCUUAAAUAUCUCGAUGUAUUUAAUGCCUUGUUUUCUCUCCUGCCGCAGGAUAAAGAAAAUGAUAAUGGAAUUCUCGGGUGCCAA,0.384
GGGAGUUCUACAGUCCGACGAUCAGCUCUUUUGGCCUGGGUACAGCAGAAAACUAGCAGUUUUCCUACUUGGCGCAAGUGACUUGUGCCUCCUUGUCUGUCCUUUGUCAGCACAGGUGCAGGCAAACCCUUCCUGGAAUUCUCGGGUGCCAA,0.27
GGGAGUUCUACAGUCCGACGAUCCACAUGACCCAGGAGAUUCCCAGACUCUGUUAGUAGUGUCUAGGAACUUGUGUUCCAGCUGAGGAGUGUCCCAGGUGUUAACGAGACUGAGGCCUAUUGCUGGAGUUCAGUGGAAUUCUCGGGUGCCAA,0.751
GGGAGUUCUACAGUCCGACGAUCUAUGGUGGGUAUGAGGGGCCAGCUGAUACCAACCAACUGGCCUGUAUCUAUCUAUCUGGAUUUGACUUGAAUUUUUAAAAUGUGUAUCGUUUAAAAAAAAAAAUGUUUGCUGGAAUUCUCGGGUGCCAA,0.983
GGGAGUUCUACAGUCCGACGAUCACCACCCCGGCCCCCUGCCCGUUCUUGAAAUGUAGGCAUCAUGCAUGUCAAACAUGAGAUGUGUGGACUGUGGCACUUGCCUGGGUCACACACGGAGGCAUCCUACCCUUUGGAAUUCUCGGGUGCCAA,1.08
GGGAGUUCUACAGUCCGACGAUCUGAGCAUUAUUCAGCAUUAGGGAAACCACACACUGGUGAGAGGUCUUUCAGUGUACUAAAAGGCAGAAAGGUCAUCACAACUUUAGUGUCAGAAUCUAUAGUGGUGGCAAUGGAAUUCUCGGGUGCCAA,0.281
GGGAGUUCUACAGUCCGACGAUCCAACCAUGCACACCACAGAGAGCCCUUAAGCCCUCCCCUCCCCAUUUCCCCUAAGUCAAAGCCAUGACUAGGAUGUACCAGCCACCUGCCUCUGAUGUCGGCGAAUCCUGUGGAAUUCUCGGGUGCCAA,0.67
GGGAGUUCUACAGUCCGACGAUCGCCCCCGCGUACAGGUCCAGCUGCGGAGGGAGAGAGCCUUGUGUGGGACUGUUAUUCCCAGGGCUCCAGCAAGCCACUCCCUGGGUGACCUCGGGCAAGGCCCUCUCUGGUGGAAUUCUCGGGUGCCAA,4.96
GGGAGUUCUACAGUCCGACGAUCAGUUUACUGAACACCAAGGAAGAAGUGAGACCUCAGUGACUGUUCUCGUGCCAAGAAGCCCUGGGCCAGGGCCAGGUGUUUCCAGAGCCAAGUGCCCAUGUGUGUAUGGGUGGAAUUCUCGGGUGCCAA,0.492
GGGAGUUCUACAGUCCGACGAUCCUGUUAUUACCCCGUCUCCUCUGCCAUUUUCUACAGCUUGCUGAGUUGUCAUUCCUUUGCAACAUUAAAAUACAUGCUGAACUCAUAUUUUUCCUUCCUUCACUGUUGUAUGGAAUUCUCGGGUGCCAA,1.27
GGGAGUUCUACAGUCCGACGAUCUGUGAUGAUGCUGUGACAAUAAGUUUGAACCUUUUUUUUUGAAACAGCAGUCCCAGUAUUCUCAGAGCAUGUGUCAGAGUGUUGUUCCGUUAACCUUUUUGUAAAUACUGUGGAAUUCUCGGGUGCCAA,9.77
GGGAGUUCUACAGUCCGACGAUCAGUCUUAUUUUAUAGUUUGAAAAGCACUUUGCACACAGUUCUUGUAUAUAAAAGUAAAGAUGUAAUUAUAGGAUAUAGUGUUCCUGCUUUGUUUAAUAAGAACCUCAUUUUGGAAUUCUCGGGUGCCAA,6.92

# Series 4
# Target: Interferon regulatory factor 3, full length, phosphomimetic (IRF3, Homo sapiens, UniProt Q14653, residues 1-427, S386D/S396D/S398D/S402D/T404D/S405D)
# Method: protein-binding microarray
# Form: double-stranded DNA, one strand shown
# Medium: in vitro
# Concentration: 2540 nM top
# Setting: 60-bp whole probe
# With: salmon DNA 0.4 mg/ml
# Relative to: random background probes
# Reading: higher = stronger binding
# Shared flanks, not repeated: GCCTAGCAC … GTCTTGATTCGCTTGACGCTGCTG
# Residues (chain): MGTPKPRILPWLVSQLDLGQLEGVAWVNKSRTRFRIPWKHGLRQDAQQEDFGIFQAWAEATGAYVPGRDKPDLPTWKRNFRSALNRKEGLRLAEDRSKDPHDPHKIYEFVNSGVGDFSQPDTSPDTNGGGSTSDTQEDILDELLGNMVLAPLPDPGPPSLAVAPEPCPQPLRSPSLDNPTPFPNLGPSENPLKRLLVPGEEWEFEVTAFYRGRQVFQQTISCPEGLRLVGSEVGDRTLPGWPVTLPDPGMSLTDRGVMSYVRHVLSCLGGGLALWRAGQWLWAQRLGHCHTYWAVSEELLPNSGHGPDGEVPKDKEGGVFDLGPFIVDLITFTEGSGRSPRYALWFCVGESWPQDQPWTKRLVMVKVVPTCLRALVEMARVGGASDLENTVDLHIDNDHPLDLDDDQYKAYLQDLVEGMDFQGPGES
Sequence,fitted relative affinity [z-score]
GACAATATCGGGTATCGAGACGTGCTA,0.241
GACGGACTGGGTATCGGGACGTGCTAG,-0.28
TTAGATATCACTCTCGATTAGTGCTAG,1.67
TCAGTAATGCTTCTGTAACTGTGCTAG,-0.293
TCAAGTATTTTTTTCCAACTGTGCTAG,0.791
GACGGTATCGACTATCGAGACGTGCTA,0.702
TTCTGAATGCCCTTCCATCACGTGCTA,0.316
TCTACAATGGCTTTGCCTTTGTGCTAG,-0.71
TTAGGACTGGCGACTGGGTTAGTGCTA,-1.15
GATGATTTCGGGTTTCGAGACGTGCTA,2.55
TTAGATTTCGGTACTGGATTAGTGCTA,3.98
TAAGATTTCAGACTGGATTAGTGCTAG,0.576
TTAGATTACAGACTGGATTAGTGCTAG,0.259
GACGAACTGGGGACTGGCGACGTGCTA,-0.683
TTAGGACTGGGGACTTGGTTAGTGCTA,-1.22
TCTTTTTCCTAATTGAACCCGTGCTAG,4.3
TCAACACTCTTCTTTTGCACTGTGCTA,0.357
AACGGTATCCTACTGCTGACGTGCTAG,2.71
GAAGGTTTCGACACTGGGGACGTGCTA,2.38
TGGTGTCTCTGGCCTGGGTCGGTGCTA,-1.16
TCATGTCCCTATTTAAGACTGTGCTAG,1.56
GACGGTTTCCCTCTCCTGACGTGCTAG,8.19
GACGGATTCGGGTATCGGGACGTGCTA,1.22
TCATATTTTTTTCTAATACTGTGCTAG,0.923

# Repeated from above (series 1):
Sequence,E-score
CGTAGCCA,-0.00494
GTAGGTGA,-0.043
ATAGGGTC,-0.0388
ATTTTAGC,0.158
